Experimental data of several laboratories.
Lines come from different studies, so protocols differ. Values joined by “and” are separate records of one study, mostly repeats; a detail may differ. ± marks the error that the study gave.

SMILES | tested on | assay | test system | conditions | scale | endpoint | value
Cn1cc(Nc2nccc(-c3ccc4c(c3)CN(C3COC3)CC[C@H]4NC(=O)c3cn(C(C)(C)C)nn3)n2)cn1 | – | item: Granulocytes count | human, clinical trial, whole blood | 50 mg twice daily, follow-up | – | percent change from baseline | 22.2%
Cc1cc(-c2nccc3c2ccn3CC(=O)Nc2ccc(-c3cnccn3)cn2)ccn1 | – | – | human, plasma | oral, 20 mg once daily, day 16, geometric mean | – | AUCtau | 2.59 µM·h
O=C1CC[C@H](N2Cc3cc(N4CCN(CC5CCN(c6ccc([C@@H]7c8ccc(O)cc8CC[C@@H]7c7ccccc7)cc6)CC5)CC4)ccc3C2=O)C(=O)N1 | – | item: Contusion | human | oral, 200 mg, with: dabigatran etexilate 75 mg | – | participants with adverse event | 8.3%
Cc1ccc(C(=O)N(CCCN)C(c2nc3snc(C)c3c(=O)n2Cc2ccccc2)C(C)C)cc1 (stereo not drawn) | – | – | human patients | intravenous, 4 mg/day | – | patients with CTCAE grade ≥3 events | 0%
O=c1c(O)c(-c2ccc(O)c(OS(=O)(=O)O)c2)oc2cc(O)cc(O)c12 | – | – | human plasma | median | – | plasma concentration | 0.0919 µM
O=C1CC[C@H](N2Cc3cc(N4CCN(CC5CCN(c6ccc([C@@H]7c8ccc(O)cc8CC[C@@H]7c7ccccc7)cc6)CC5)CC4)ccc3C2=O)C(=O)N1 | – | radiolabelled mass balance | Sprague-Dawley rat, urine | oral, 20 mg/kg | – | dose excreted | < 2%
CC(=O)c1c(C)cc2cc(O)cc(O[C@@H]3O[C@H](CO)[C@@H](O)[C@H](O)[C@H]3O)c2c1O | HepaRG co-cultured with HK-2 | MTT | – | 16.67 µM, 24 h | relative to: untreated control | cell viability | 99.1 ± 14%
CCc1c(-c2ccccc2)c(-c2ccccc2)nn1-c1ccccc1-c1cccc(OCC(=O)O)c1 | – | – | Sprague-Dawley rat, fat | oral, 10 mg/kg, 8 h | – | concentration | 1020 ng/g and 1220 ng/g
COc1ccc(C2CC(=O)c3c(O)cc(OS(=O)(=O)O)cc3O2)cc1O (stereo not drawn) | – | – | human plasma | median | – | plasma concentration | 6.33 µM
Cc1c(Cl)c(C)[n+]([O-])c(Cl)c1-c1noc(-c2cc(O)c(O)c([N+](=O)[O-])c2)n1 | – | – | healthy Caucasian subjects | oral, 50 mg, 10 days | – | TEAE incidence | 40%
C[C@H]1CN(C(=O)CC#N)[C@]12CCN(c1ncnc3[nH]ccc13)C2 | – | – | healthy human | oral, 3 mg single | – | subjects with serious TEAEs | 0%
O=C(O)C[C@H](O)C[C@H](O)/C=C/c1c(C2CC2)nc2ccccc2c1-c1ccc(F)cc1 | COS-7 | – | – | 30 µM, 24 h, 0.1% DMSO, unit not given | relative to: vehicle control | apoptotic cells | 2.04 ± 0.25
O=C(O)Cc1cccc(O)c1 | – | – | human plasma | mean | – | plasma concentration | 16.8 µM
CN(C)c1ccc(O)c2c1C[C@H]1C[C@H]3[C@H](N(C)C)C(O)=C(C(N)=O)C(=O)[C@@]3(O)C(O)=C1C2=O | – | starch gel membrane permeability | Gram-negative envelope surrogate | 200 µM, 60 min, pH 7.4 | – | amount permeated | 1.73 nmol
O=C(O)c1cc(O)c2c(c1)C(=O)c1cccc(O[C@@H]3O[C@H](CO)[C@@H](O)[C@H](O)[C@H]3O)c1C2=O | HepaRG co-cultured with HK-2 | MTT | – | 33.33 µM, 24 h | relative to: untreated control | cell viability | 104 ± 7.1%
O=C1CCC(N2Cc3cc(CO)c(F)cc3C2=O)C(=O)N1 (stereo not drawn) | – | – | cynomolgus monkey, male | oral, 0.3 mg/kg parent drug, 0.5 h | – | plasma concentration | 0.29 ± 0.24 ng/mL
Cc1cc(C)c(CNC(=O)c2cc(Cl)c3c(c2C)O[C@@](C)([C@H]2CC[C@H](N(C)C)CC2)O3)c(=O)[nH]1 | – | – | human relapsed/refractory NHL | oral, 200 mg once daily, onset day 1 to 14 | – | febrile neutropenia grade ≥3 | 0%
CN(C(=O)n1cnc(-c2cccnc2)c1)[C@H]1CC[C@H](O)CC1 | – | – | rat, cerebellum | oral, 10 mg/kg daily for 5 days, 72 h | – | tissue concentration | 13.1 ± 1 ng/g
CCO | – | – | human | concentration not given | – | number of TEAEs | 45
COc1cccc(-c2ccc(NC(=O)C3=C(C(=O)O)CCC3)c(F)c2)c1 | COS-7 | – | – | 10 µM, 24 h, 0.1% DMSO, unit not given | relative to: vehicle control | apoptotic cells | 0.78 ± 0.21
CC(C)(Sc1ccncc1-c1ccc(C#N)c2ccccc12)C(=O)O | – | – | human, plasma | oral, 10 mg once daily, with: febuxostat 40 mg | – | AUC(0-24) | 216 ng·h/mL
O=C(Nc1nc2cccc(-c3ccc(CN4CCS(=O)(=O)CC4)cc3)n2n1)C1CC1 | – | item: joint swelling | human rheumatoid arthritis patients | oral, 200 mg once daily, 4 weeks, regardless of relatedness | – | treatment-emergent adverse events | 8.3%
O=C1NCCc2nc(OCc3cccc(F)c3)ccc21 | – | item: loss of Escape | Sprague-Dawley rat male | oral, 100 mg/kg, 1 h | direction not given | Irwin test score | 0
Cc1c2oc3c(C)ccc(C(=O)N[C@@H]4C(=O)N[C@H](C(C)C)C(=O)N5CCC[C@H]5C(=O)N(C)CC(=O)N(C)[C@@H](C(C)C)C(=O)O[C@@H]4C)c3nc-2c(C(=O)N[C@@H]2C(=O)N[C@H](C(C)C)C(=O)N3CCC[C@H]3C(=O)N(C)CC(=O)N(C)[C@@H](C(C)C)C(=O)O[C@@H]2C)c(N)c1=O | – | LC-MS | children with cancer, plasma | dose not given, 24 h | – | minimum plasma concentration | 0.7 µg/L

For quick reference, copied from above:
SMILES | tested on | assay | test system | conditions | scale | endpoint | value
O=C1CC[C@H](N2Cc3cc(N4CCN(CC5CCN(c6ccc([C@@H]7c8ccc(O)cc8CC[C@@H]7c7ccccc7)cc6)CC5)CC4)ccc3C2=O)C(=O)N1 | – | radiolabelled mass balance | Sprague-Dawley rat, urine | oral, 20 mg/kg | – | dose excreted | < 2%
COc1ccc(C2CC(=O)c3c(O)cc(OS(=O)(=O)O)cc3O2)cc1O (stereo not drawn) | – | – | human plasma | median | – | plasma concentration | 6.33 µM
